# Measured values from different studies.
# Parts stem from different laboratories: compare values within a part only.
# Sequence of UniProt Q9UPE1 (whole entry, looked up): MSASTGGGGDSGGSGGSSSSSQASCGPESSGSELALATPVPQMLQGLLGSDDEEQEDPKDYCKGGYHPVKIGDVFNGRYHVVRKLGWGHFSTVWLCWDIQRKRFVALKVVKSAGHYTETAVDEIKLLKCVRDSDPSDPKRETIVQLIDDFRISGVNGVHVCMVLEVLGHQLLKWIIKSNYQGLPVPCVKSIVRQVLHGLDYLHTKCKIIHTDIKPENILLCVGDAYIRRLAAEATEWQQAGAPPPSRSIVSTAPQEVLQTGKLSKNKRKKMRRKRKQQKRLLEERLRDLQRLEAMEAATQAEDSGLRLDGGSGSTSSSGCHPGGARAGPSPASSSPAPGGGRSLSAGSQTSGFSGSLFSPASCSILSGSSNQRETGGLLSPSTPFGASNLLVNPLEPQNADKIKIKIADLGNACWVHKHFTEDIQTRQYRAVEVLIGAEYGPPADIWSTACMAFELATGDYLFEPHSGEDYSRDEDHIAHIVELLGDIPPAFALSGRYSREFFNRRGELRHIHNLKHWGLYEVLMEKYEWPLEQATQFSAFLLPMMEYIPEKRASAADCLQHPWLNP
# Sequence of UniProt Q02156 (whole entry, looked up): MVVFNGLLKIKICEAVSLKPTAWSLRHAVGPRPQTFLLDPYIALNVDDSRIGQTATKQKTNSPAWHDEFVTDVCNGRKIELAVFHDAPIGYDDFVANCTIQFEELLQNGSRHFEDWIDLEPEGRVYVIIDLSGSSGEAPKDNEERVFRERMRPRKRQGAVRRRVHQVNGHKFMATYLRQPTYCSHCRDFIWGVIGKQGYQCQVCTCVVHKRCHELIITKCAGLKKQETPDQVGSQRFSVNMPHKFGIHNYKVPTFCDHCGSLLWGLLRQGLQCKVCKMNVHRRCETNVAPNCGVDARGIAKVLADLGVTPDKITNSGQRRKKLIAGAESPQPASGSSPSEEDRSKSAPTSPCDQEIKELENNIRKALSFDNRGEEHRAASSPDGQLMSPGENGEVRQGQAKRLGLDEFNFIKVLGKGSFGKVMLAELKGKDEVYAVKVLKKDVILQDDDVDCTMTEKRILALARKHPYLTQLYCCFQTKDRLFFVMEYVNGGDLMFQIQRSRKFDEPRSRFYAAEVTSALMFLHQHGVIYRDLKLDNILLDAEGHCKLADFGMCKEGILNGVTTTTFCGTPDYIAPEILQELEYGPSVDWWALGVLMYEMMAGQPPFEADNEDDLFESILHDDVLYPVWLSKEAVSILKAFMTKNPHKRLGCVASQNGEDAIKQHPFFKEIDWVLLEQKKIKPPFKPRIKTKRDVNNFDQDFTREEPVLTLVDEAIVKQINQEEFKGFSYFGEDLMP
# Sequence of UniProt Q15746 (whole entry, looked up): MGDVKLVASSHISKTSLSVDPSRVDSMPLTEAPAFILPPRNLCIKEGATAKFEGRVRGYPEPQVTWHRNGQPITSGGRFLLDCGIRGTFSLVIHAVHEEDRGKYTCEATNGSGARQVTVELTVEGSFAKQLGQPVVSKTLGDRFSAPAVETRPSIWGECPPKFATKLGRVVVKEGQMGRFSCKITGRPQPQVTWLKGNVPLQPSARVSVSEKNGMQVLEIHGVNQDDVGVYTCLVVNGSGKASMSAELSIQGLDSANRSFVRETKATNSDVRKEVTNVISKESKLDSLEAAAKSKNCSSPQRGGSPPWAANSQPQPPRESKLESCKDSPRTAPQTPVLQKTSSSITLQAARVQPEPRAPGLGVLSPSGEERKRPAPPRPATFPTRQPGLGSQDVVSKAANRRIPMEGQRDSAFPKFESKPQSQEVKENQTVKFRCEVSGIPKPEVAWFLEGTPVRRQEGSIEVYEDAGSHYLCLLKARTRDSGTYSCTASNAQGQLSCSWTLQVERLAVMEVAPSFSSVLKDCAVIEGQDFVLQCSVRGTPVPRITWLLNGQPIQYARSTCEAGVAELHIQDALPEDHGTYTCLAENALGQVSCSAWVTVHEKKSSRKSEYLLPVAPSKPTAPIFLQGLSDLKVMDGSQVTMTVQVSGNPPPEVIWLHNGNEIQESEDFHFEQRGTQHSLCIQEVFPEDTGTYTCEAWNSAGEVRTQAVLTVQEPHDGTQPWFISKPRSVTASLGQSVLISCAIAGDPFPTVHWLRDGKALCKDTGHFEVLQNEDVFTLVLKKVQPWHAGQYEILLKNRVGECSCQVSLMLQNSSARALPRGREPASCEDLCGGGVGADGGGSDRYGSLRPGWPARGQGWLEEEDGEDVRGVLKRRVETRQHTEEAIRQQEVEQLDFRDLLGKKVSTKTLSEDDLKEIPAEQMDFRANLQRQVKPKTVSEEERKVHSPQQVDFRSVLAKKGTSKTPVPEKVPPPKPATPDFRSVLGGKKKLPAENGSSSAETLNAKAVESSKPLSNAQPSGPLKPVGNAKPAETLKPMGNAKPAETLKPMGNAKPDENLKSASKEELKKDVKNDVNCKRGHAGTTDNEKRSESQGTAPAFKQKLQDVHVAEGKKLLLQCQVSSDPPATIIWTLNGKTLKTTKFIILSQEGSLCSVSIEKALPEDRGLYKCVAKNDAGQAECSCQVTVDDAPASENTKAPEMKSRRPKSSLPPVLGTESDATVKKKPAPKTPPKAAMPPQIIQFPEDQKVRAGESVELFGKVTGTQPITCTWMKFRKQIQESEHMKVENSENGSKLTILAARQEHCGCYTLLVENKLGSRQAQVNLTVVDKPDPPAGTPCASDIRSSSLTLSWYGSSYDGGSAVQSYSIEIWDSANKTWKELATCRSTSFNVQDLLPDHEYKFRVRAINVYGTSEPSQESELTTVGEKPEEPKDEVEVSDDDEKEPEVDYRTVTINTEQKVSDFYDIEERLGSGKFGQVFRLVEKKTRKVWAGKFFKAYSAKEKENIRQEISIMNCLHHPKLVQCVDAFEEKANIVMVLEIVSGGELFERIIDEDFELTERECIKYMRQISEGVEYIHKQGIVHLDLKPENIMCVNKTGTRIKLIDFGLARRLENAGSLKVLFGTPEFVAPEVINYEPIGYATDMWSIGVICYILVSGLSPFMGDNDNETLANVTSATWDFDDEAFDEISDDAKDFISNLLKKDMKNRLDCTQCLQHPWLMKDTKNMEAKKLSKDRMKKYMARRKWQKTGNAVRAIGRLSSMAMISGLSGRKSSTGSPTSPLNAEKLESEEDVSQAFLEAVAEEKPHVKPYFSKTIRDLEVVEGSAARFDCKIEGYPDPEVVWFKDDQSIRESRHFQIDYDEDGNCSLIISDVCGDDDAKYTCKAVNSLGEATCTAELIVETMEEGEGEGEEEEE
# Sequence of UniProt P25098 (whole entry, looked up): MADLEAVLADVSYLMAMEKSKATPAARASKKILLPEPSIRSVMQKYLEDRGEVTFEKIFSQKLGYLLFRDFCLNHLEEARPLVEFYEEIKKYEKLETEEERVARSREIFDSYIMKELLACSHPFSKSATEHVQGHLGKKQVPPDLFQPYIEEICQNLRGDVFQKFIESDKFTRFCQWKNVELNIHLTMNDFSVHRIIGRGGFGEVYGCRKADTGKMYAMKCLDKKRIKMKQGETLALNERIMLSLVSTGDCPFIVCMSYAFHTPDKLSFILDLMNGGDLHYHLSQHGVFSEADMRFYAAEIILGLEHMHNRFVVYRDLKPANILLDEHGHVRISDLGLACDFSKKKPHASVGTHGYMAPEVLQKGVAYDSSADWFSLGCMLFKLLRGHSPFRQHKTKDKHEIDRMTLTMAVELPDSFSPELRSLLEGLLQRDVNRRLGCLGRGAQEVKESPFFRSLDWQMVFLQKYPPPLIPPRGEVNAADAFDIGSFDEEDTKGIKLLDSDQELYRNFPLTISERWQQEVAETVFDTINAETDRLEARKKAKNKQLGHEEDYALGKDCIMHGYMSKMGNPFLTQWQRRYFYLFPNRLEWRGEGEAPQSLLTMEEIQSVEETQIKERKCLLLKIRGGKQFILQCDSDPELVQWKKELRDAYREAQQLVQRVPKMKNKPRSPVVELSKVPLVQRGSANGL
# Sequence of UniProt Q96BR1 (whole entry, looked up): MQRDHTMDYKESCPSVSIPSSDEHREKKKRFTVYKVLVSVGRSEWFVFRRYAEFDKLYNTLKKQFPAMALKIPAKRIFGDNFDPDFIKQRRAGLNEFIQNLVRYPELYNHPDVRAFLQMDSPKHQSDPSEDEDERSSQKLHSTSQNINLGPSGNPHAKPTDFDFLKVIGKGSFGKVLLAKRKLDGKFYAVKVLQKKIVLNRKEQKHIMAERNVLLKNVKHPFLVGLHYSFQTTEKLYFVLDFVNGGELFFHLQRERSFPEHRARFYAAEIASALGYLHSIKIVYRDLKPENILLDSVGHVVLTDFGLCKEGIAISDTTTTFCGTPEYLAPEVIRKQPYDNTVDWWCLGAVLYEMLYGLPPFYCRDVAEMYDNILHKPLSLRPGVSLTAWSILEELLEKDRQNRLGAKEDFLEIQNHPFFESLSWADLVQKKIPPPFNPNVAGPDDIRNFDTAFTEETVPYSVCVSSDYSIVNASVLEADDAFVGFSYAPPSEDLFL
# Sequence of UniProt Q96PN8 (whole entry, looked up): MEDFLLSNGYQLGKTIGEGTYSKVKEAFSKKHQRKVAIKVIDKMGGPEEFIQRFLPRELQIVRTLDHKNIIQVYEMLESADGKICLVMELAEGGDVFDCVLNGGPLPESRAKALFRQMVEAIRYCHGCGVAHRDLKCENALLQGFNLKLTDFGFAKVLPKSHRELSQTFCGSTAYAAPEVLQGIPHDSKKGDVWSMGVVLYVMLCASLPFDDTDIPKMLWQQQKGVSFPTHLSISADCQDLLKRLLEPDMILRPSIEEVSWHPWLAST
# Sequence of UniProt Q9UQB9 (whole entry, looked up): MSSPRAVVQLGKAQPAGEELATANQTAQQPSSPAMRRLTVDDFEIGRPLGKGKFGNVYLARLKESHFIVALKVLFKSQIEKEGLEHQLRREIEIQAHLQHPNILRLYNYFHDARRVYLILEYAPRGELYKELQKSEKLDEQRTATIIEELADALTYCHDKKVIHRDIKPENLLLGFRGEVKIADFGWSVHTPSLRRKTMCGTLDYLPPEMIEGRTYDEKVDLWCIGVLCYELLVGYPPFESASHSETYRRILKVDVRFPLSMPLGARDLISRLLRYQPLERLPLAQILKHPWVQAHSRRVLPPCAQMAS

# Study 1
# Cell line: HaCaT
# Concentration: 100 µM
# Time: 60 h
SMILES,viability
O=C(O)c1cccc(-c2noc(-c3ccccc3F)n2)c1,114%
O=c1c(O[C@@H]2O[C@H](CO)[C@H](O)[C@H](O)[C@H]2O)c(-c2ccc(O)c(O)c2)oc2cc(O)cc(O)c12,162%
CCc1c(C)[nH]c2c1C(=O)C(CN1CCOCC1)CC2 (centres unmarked),140%
CC(C)c1ccc2oc3nc(N)c(C(=O)O)cc3c(=O)c2c1,126%
O=C(CO)[C@@H](O)[C@H](O)[C@H](O)CO,143%
COc1ccccc1OCC(O)CN1CCN(CC(=O)Nc2c(C)cccc2C)CC1 (centres unmarked),118%
O=C(O)[C@@H]1CSCN1,131%

# Study 2
# Organism: Sarcocystis neurona
# Read-out: parasite growth
# Concentration: 10 µM
# Time: 96 h
Compound,inhibition [%]
COc1ccc(C2CNC(=O)C2)cc1OC1CCCC1 (centres unmarked),-11.5
NS(=O)(=O)Cc1noc2ccccc12,-10.2
Nc1nc(Cl)nc2c1ncn2[C@H]1C[C@H](O)[C@@H](CO)O1,-13.7
CNC(=C[N+](=O)[O-])NCCSCc1ccc(CN(C)C)o1,-18
COCC1=C(C(=O)OC(C)OC(=O)OC(C)C)N2C(=O)[C@@H](NC(=O)/C(=N\OC)c3csc(N)n3)[C@H]2SC1 (some centres unmarked),-9.2
Nc1nc(F)nc2c1ncn2[C@@H]1O[C@H](CO)[C@@H](O)[C@@H]1O,-9.3
CC[C@H](C)C(=O)O[C@H]1CCC=C2C=C[C@H](C)[C@H](CC[C@@H]3C[C@@H](O)CC(=O)O3)[C@H]21,0.5
CC(=O)OCC(=O)NCCCOc1cccc(CN2CCCCC2)c1,-15.7
CO/N=C(\C(=O)N[C@@H]1C(=O)N2C(C(=O)O)=C(COC(C)=O)CS[C@H]12)c1csc(N)n1,-15.7
O=S(=O)(O)CCS,-8.3
Cc1occc(=O)c1O,-16.6
CC(=O)NS(=O)(=O)c1ccc(N)cc1,-11.6
CC[C@H]1OC(=O)[C@H](C)C(=O)[C@H](C)[C@@H](O[C@@H]2O[C@H](C)C[C@H](N(C)C)[C@H]2O)[C@](C)(OC)C[C@@H](C)C(=O)[C@H](C)[C@H]2N(CCCCn3cnc(-c4cccnc4)c3)C(=O)O[C@]12C,-4.4

# Study 3
# SMILES: O=Nc1c(-c2c(O)[nH]c3cc(Br)ccc23)[nH]c2ccccc12
# Read-out: enzyme activity
# Mode: inhibitor
# Concentration: 0.5 µM
# Relative to: control
target,remaining activity [%]
"BMX (Homo sapiens, UniProt P51813)",29.2
"EPHB2 (Homo sapiens, UniProt P29323)",74.7
"SRPK3 (Homo sapiens, UniProt Q9UPE1)",96.4
"RPS6KB1 (Homo sapiens, UniProt P23443)",79.6
"FLT3 (Homo sapiens, UniProt P36888)",4.02
"CSK (Homo sapiens, UniProt P41240)",65.8
"PRKCG (Homo sapiens, UniProt P05129)",90.9
"NUAK1 (Homo sapiens, UniProt O60285)",15.7
"RPS6KA1 (Homo sapiens, UniProt Q15418)",47.2
"MYLK (Homo sapiens, UniProt Q15746)",45
"FGFR4 (Homo sapiens, UniProt P22455)",79.6
"SGK1 (Homo sapiens, UniProt O00141)",60.9
"PIM2 (Homo sapiens, UniProt Q9P1W9)",95.5
"Aurora kinase C (AURKC, Homo sapiens, UniProt Q9UQB9)",51.8
"CSF1R (Homo sapiens, UniProt P07333)",74.4
"GRK6 (Homo sapiens, UniProt P43250)",79.9
"PRKCE (Homo sapiens, UniProt Q02156)",92.4
"GRK2 (Homo sapiens, UniProt P25098)",97.3
"EPHA7 (Homo sapiens, UniProt Q15375)",81.4
"PAK2 (Homo sapiens, UniProt Q13177)",90.9

# Study 4
# SMILES: CCCOc1ccc([C@H]2[C@H](C(=O)O)[C@@H](c3ccc4c(c3)OCO4)CN2CC(=O)Nc2c(CC)cccc2CC)cc1
# Method: competition with immobilised ligand
# Concentration: 1 µM
target,read-out,remaining binding
"TSSK3 (Homo sapiens, UniProt Q96PN8)",cell-free assay,58%
"eIF-2-alpha kinase GCN2, C-terminal kinase domain (EIF2AK4, Homo sapiens, UniProt Q9P2K8, S808G)",cell-free assay,90%
"CAMK4 (Homo sapiens, UniProt Q16566)",cell-free assay,89%
"PLK2 (Homo sapiens, UniProt Q9NYY3)",cell-free assay,79%
"EGFR (Homo sapiens, UniProt P00533, del747-752/P753S)",cell-free assay,81%
"PRKCE (Homo sapiens, UniProt Q02156)",cell-free assay,74%
"PI4KB (Homo sapiens, UniProt Q9UBF8)",cell-free assay,75%
"Myosin-IIIa (MYO3A, Homo sapiens, UniProt Q8NEV4)",binding,100%
"BRSK2 (Homo sapiens, UniProt Q8IWQ3)",cell-free assay,97%
"SRPK3 (Homo sapiens, UniProt Q9UPE1)",cell-free assay,100%
"MYLK (Homo sapiens, UniProt Q15746)",cell-free assay,85%
"CDK11B (Homo sapiens, UniProt P21127)",cell-free assay,100%
"NTRK3 (Homo sapiens, UniProt Q16288)",cell-free assay,71%
"CLK3 (Homo sapiens, UniProt P49761)",cell-free assay,97%
"SGK3 (Homo sapiens, UniProt Q96BR1)",cell-free assay,63%
"PAK6 (Homo sapiens, UniProt Q9NQU5)",cell-free assay,68%
"NLK (Homo sapiens, UniProt Q9UBE8)",cell-free assay,100%
"HUNK (Homo sapiens, UniProt P57058)",cell-free assay,100%
"PIK3CD (Homo sapiens, UniProt O00329)",cell-free assay,75%
"PRKAA2 (Homo sapiens, UniProt P54646)",cell-free assay,100%
"CAMK1G (Homo sapiens, UniProt Q96NX5)",cell-free assay,90%
"BRAF (Homo sapiens, UniProt P15056)",cell-free assay,80%

# Repeated from above (study 4):
target,read-out,remaining binding
"MYLK (Homo sapiens, UniProt Q15746)",cell-free assay,85%
"TSSK3 (Homo sapiens, UniProt Q96PN8)",cell-free assay,58%
"PRKAA2 (Homo sapiens, UniProt P54646)",cell-free assay,100%
"CAMK1G (Homo sapiens, UniProt Q96NX5)",cell-free assay,90%
